Published values pooled from the literature.
Numbered parts are unrelated; each lists some results of a single study.

Study 1 — technique: protein binding microarray; molecule type: double-stranded DNA, one strand shown; matrix: in vitro; concentration: not given; baseline: not given; direction: higher = stronger binding; quantity: E-score
Target: Histone acetyltransferase KAT6A, winged helix 2, GST fusion (KAT6A, Homo sapiens, UniProt Q92794, residues 85-181)
Setting: 8-mer, flanks averaged, mean of 2 arrays, mostly near background
Residues (chain): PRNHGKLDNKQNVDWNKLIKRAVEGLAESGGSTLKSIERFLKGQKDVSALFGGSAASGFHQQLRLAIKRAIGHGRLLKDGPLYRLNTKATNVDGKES
CGGGAAGA: -0.0469
ACAGCTGC: -0.201
ATATCGCC: 0.0884
GATTTTGC: -0.135
CCGCTCAA: 0.0602
CTACGAGC: -0.162
CAGATTCA: -0.0642
AAGCCTTG: -0.0704
GCACTTTA: -0.00128
AATAGAGC: 0.143
AACGCCGT: 0.105
CTTCGTAA: -0.0236
TAGTGTCA: 0.0813
GCGGGGTA: 0.0642
AAGCATAA: 0.0103
AGGGTGAT: -0.0623
AGGTCCGA: 0.0988

Study 2 — technique: universal PBM; molecule type: double-stranded DNA, one strand shown; matrix: in vitro; concentration: 600 nM; direction: higher = stronger binding; quantity: E-score
Target: Sal-like protein 4, full length isoform A (SALL4, Homo sapiens, UniProt Q9UJQ4, residues 1-1053)
Sequence of UniProt Q9UJQ4 (whole entry, looked up): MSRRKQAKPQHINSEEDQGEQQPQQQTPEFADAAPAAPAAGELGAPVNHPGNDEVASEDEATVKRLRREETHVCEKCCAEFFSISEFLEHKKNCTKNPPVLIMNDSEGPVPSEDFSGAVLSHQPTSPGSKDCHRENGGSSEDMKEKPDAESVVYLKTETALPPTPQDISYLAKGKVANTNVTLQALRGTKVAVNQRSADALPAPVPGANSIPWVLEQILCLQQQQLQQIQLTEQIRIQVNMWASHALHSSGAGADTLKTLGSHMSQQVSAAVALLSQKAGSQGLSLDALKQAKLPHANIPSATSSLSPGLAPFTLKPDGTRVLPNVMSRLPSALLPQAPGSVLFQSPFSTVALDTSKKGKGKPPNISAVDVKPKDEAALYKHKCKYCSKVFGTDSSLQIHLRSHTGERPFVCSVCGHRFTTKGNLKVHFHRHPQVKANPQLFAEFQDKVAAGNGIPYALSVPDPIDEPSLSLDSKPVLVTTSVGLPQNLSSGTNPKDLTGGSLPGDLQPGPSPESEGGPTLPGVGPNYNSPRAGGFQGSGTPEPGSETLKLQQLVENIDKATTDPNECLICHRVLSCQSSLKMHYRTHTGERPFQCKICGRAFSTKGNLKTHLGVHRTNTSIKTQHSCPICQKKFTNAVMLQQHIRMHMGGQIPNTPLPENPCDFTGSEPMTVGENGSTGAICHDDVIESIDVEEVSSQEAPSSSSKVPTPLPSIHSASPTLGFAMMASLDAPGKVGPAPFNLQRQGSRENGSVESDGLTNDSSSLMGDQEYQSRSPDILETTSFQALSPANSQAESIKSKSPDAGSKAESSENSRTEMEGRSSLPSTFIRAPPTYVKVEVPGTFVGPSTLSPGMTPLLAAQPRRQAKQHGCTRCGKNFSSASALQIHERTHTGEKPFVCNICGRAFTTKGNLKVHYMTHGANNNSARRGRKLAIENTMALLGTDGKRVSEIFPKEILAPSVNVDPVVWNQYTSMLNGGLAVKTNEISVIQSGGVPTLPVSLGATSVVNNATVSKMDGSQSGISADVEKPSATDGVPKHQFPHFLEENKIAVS
Setting: 8-mer, flanks averaged, mean of replicates
AAAAATTC: 0.345
TGAGAGAA: 0.104
GCGCTAAA: -0.0736
GGCGGGAC: -0.323
AAGTCTCT: 0.0419
AGCCCGGG: -0.42
GTTTAGCA: -0.0245
AGGCAATA: 0.255
AACGATGT: 0.162
CCTTAGCG: -0.28
AATGATTC: 0.287
ACTACTCC: -0.0711
ACAATAAG: 0.252
GCAGTGGC: -0.302
AGGAGAAT: 0.0301
ATTTATAA: 0.382
ACTGCATG: -0.0328

Study 3 — technique: protein-binding microarray; molecule type: double-stranded DNA, one strand shown; matrix: in vitro; concentration: 2200 nM top; setting: 60-bp whole probe; together with: salmon DNA 0.4 mg/ml; baseline: random background probes; direction: higher = stronger binding; quantity: fitted relative affinity; shared flanks, not repeated: GCCTAGCAC … GTCTTGATTCGCTTGACGCTGCTG
Target: Interferon regulatory factor 7, full length, phosphomimetic (IRF7, Homo sapiens, UniProt Q92985, residues 1-503, S471D/S472D/S475D/S476D/S477D/S483D/S484D/S487D)
Construct (chain): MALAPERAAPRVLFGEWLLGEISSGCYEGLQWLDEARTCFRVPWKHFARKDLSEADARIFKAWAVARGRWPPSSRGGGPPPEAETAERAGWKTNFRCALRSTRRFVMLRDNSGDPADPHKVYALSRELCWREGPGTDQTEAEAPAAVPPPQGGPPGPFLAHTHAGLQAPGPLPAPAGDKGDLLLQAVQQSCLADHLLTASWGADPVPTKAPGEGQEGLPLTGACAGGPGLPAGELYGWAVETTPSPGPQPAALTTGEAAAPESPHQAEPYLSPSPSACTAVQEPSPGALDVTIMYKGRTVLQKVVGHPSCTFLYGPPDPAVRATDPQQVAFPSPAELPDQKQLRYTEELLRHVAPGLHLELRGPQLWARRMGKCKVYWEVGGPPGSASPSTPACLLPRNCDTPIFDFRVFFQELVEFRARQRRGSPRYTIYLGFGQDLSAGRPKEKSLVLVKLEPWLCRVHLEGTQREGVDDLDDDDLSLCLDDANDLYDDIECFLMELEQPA
CCAGGCTGAAAGACCTCTGAGTGCTAG: -0.963 z-score
TTAGAAATGAGACTGGATTAGTGCTAG: -1.04 z-score
TTAGGTATCCTTTTTCTTTAGTGCTAG: 0.92 z-score
CACTTTCTTTACTTCACTCTGTGCTAG: 3.87 z-score
TTAGGACCGGGTTTCGGTTAGTGCTAG: 3.58 z-score
CTGTTTTTGCTTTCCTTTATGTGCTAG: 5.84 z-score
TACGATCTCAGTCTCGAGACGTGCTAG: 0.59 z-score
CTTCTCCTCTAGGTTCTCTGAGTGCTA: 1.17 z-score
TTAGATTTCGGGTTTCGATTTGTGCTA: 9.4 z-score
TCATATTTAAGCTCCTATACTGTGCTA: 0.698 z-score
TTAGGTTTCGACTTACGGTTAGTGCTA: 8.24 z-score
GACGGTTTCGGTTTCGGTACGTGCTAG: 15.4 z-score
GACGAACTGAGTTTCGACACGTGCTAG: 1.72 z-score
TTAGGTACCGGGTATCGGTTAGTGCTA: -0.0437 z-score
GACGAGTTCGGGACTGGAGACGTGCTA: -0.312 z-score
CAGGAATGGCACCAGCAGGGGTGCTAG: -1.02 z-score
TTTGCTTTCCTTCATGCACTGTGCTAG: 2.99 z-score
TTAGGTTTGGACTTTCGGTTAGTGCTA: 5.66 z-score
TTAGGACTGGGGTATCGGTTAGTGCTA: -0.367 z-score
GACAGACTGGGGTTTCGGGACGTGCTA: 0.899 z-score
TTAGGTATCGGCCTCGGTTAGTGCTAG: 0.19 z-score
TCATTTTTTTTTCTACTACTGTGCTAG: 2.21 z-score
TTAGGACTGGGGTATCGGGTAGTGCTA: -0.764 z-score
TTAGGTATCGACTGTCGGTTAGTGCTA: 0.331 z-score
TTAGGTAGCCTTTTCCTTTAGTGCTAG: 0.551 z-score

Study 4 — technique: RNA Bind-n-Seq; molecule type: RNA; matrix: in vitro; concentration: 365 nM; baseline: no-protein control; direction: higher = stronger binding; quantity: RBNS enrichment (R)
Target: RNA binding protein fox-1 homolog 2, RRM domain, GST-SBP tag (RBFOX2, Homo sapiens, UniProt O43251-10, residues 100-194)
Setting: natural RNA segment, single round, ends assumed
Shared flanks, not repeated: GGGAGUUCUACAGUCCGACGAUC … UGGAAUUCUCGGGUGCCAA
Residues (chain): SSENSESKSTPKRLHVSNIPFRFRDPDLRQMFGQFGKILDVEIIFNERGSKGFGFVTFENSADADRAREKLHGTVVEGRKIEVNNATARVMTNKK
UUUUUCUUCUAGCAUUUAUAAUUUUUUCAACUCCUAUUGUGUUUCUUUGUGUGUGAUAUUUUAAUCAAAAGUGGUUGAGUUGUUAACAGUGUUCUUUGAAAGAAUCUCUA: 2.07
AGGCAAGCAAAAGAUUGUCCCCUUCUGCAUAUGGGUAAAACUGAGACGUCCCCGUGAGCCCGAGGCUGGAAGUGGUGUCUGCCUUCAAGGGUUAAUCCCUCUUUGUUCCA: 0.931
CUGAAAAUACCACCCCAGGAGAGGACCUCGCCCCAAGCAAGCCAGUGAGCAGCCCUGCCAGACUACUGCCAGACUGAGAAACCCAGAAGCUGGUAGUCAUGUGGGCUUGC: 0.639
CUUGAAAGGUAUUAAGGAAAAAAUUCCACAUAGCUCUGGGCCUUUUUUGUAUUCUGAUUGCCACGUUAAUCUGUAAUCGUUAAGUACCCAUGAAAGAAUGUGUUUCAGUA: 0.487
AGGAACCCAGCCUCCUGUGUUUUGACCCUCCUGCAGGCACUGUGGGACUCGAGGGCAGCAGAUCCAUCUCCCGUCCCUUGCUGCAUGAUGGUCACUAGCUGAUCUGUGAU: 0.627
AACGAUGAUUGAAUGGGAAAAAGAGACUACAAAAUUUGUCGUAGGAUGUAUACAGACUUAUUUUCUUUAUUACAGUAUUAUAAGAAAACAUAUGUAUUUGUAAAAAUGGU: 0.981
UAAAUGUGGAUUUUGUAGAUGUUAGGGUAUAAGUUGCUGUAAAAUUUGUGUAAAUUUGUAUCCACACAAAUUCAGUCUCUGAAUACACAGUAUUCAGAGUCUCUGAUACA: 0.415
UUUCGAAAUUGUAUCCUUCUGACUCUGCUUCCUGGGUGCUGAAAUUAAAGGCAUGUGCCACUAUGCAAGUUUAUGUGGUGCUGGGCACAGAACCCAGGGCUUAAUGCGUG: 4.4
AGCUGUCACCUUACUCCCAUCCCAGGAGGCCGUAAGGCCUCCCACCUCUCCCCUGUGACUGCAGCUGCUGAGCCAUAAAGUUGGACCAUAUGACACAAGGCCAAUGGGGA: 0.434
AGCCAGCCUGUUUGGUCUGCUUCCCCUUUGCUGGACACCUGCGUCCCUCUCUUGUUUCCUCUCCUCUUCUUAUGCCCCCUCCUGGGGAGGAGGCUACUGGAUGUAAGCUG: 0.456
UUUUAUGACUCCAGUCUGCAAGCAGUGUUAGGUUGACCUCAUAGGCUUUUAUGAUUCCAGUCUGCUGGUAUGAAGCAGAGCAUCAAAAAAAAUUCGUGAUUCCUUGAGUG: 0.635
CUGUAGUACUGGUGUCAUGGAAAUAUAUGUUAUUUCCACAGUCAUUUCAUUAAAGAUGAAAACUUUAUUCUUGCUGUGAUUUGUACUUAUAUAAGUGUGGAUCAUCAUAA: 0.305

Study 5 — technique: RNA Bind-n-Seq; molecule type: RNA; matrix: in vitro; concentration: not given; baseline: input RNA pool; direction: higher = stronger binding; quantity: bound/input enrichment
Target: RING finger protein unkempt homolog, zinc fingers 1-6, GST-SBP tag (UNK, Homo sapiens, UniProt Q9C0B0, residues 30-357)
Setting: RNA with constant flanks, human-mouse chimeric sites, ends assumed
Shared flanks, not repeated: GGGAGUUCUACAGUCCGACGAUC … CAACAGAGGAUUGAGCAUCA
Residues (chain): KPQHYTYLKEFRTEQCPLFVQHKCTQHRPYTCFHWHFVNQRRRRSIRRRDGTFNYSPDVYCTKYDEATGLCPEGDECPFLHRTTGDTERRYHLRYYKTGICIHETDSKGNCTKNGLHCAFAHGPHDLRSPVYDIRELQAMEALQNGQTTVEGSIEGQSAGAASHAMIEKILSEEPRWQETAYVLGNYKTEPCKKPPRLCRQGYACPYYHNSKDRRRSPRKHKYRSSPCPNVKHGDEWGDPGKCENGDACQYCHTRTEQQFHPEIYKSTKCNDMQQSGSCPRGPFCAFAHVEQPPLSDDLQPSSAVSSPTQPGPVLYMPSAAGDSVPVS
CACAGAGCAGCACCUACCCCCUCCUCCUUUCCACACCUGCAAACUCUUUUACUUGGGCUGAAUAUUUAGUGUAAUUAACAUCGCAGCUUGAGGGCUCCCUGUGGCAAUUCCCGGAUUAAA: 2.18 ratio
CAGUCCCCGUGUCCCAGUGCAGGACGAUGUGAACAAAAACUCAAAGCGGACCCUCUACUGUAGUUGAUGAUUCUCGAAAUGUGCUAUUAUUGUUUGUAAAAAAGGAAUUUUUUUUAAAGA: 0.272 ratio
UUACCCGAGAACGAGGAUGAGCUGGAGAGCACCAACAGGCGCUACACCAAGAGGGACUGCAGCACUUUUCUCAGAACUAGCGAGACGGGCAUCGUGGACCAGGUCAUGGUCACUCUCAAC: 0.17 ratio
AUGGAACAUUUCGAUGCGUCACUCAGUACCUAUUUCAAGGCCUUCCUGGGCCCCCGAGAUACAAGAGUCAAAGGAUGGUUCCUCCUGGACAAUUAUAUACCCACAUUUGUCUGUUCUGUU: 0.0882 ratio
GACCCACAGUGGUCUGAGGAGCAACUCAUUGCUGCAAAAUUCUGUUUUGCUGGCCUUGUUAUAGGGCAGACUGAAGUGGACAUCAUGAGUCAUGCCACACAGGCUAUUUUUGAAAUUCUG: 0.158 ratio
GUUCGGCUCUGGGAUCAUGCCACAAUGACAGAAGUGAAAUCUCUGAAUUUUAAUAUGUCUGUUAGCAGCAUGGAGUAUAUUCCUGAAGGAGAGAUUUUGGUUAUAACUUAUGGACGAUCU: 0.425 ratio
GAUAAGAAAAACUUGUUGGAGACCCGCUUGCACAUCACUGGUAGAGACCUGAGGUGUCAAAUAGCUGAAACUUUCGGAUUUCAAGAAAAUUACAUCAAGAUCGUAAUAAAUAAGAAACAG: 0.427 ratio
UUACCCGAGAACGAGGAUGAGCUGGAGAGCACCAACAGACGCUAUACCAAGAGGGACUGCAGCACUUUCCUCAGAACUAGUGAGACGGGCAUUGUGGACCAGGUCAUGGUCACUCUCAAC: 0.254 ratio
CACAGAGCAGCACCUACCCCCUCCUCCUUUCCACACCUGCAAACUCUUUUACUUGGGCUGCAUAGUUAGUGUUAAUUCAUCUCAGCUUUGAGGGCUCCUGUGGCAAAUUCCCGGAUUAAA: 4.41 ratio
GGAAGUACAAUGAUGGAAAUAGAUGGCGACAAAGGCAAACAAGGCGGGCCCACCUACUACAUAGACACCAAUGCCCUCCGCGUGCCCAGGGAGAACAUGGAGGCCAUCUCACCACUCAAG: 0.252 ratio
UUCAAAGAAAAGGGCAGCUGUGUCAUUUCAUAAGUAACUCUGGGGGAGGGAAAUUCUGUUCUUUUGUUUAAUUUUCCCCCAGAUAAAACCAACAUGCGUGUUGAAGAACUGAGAAAAAAU: 0.239 ratio
